# Published values collected from several papers.
# Several values in a cell are separate wells, animals, samples, runs or records. Numbers after ± are the reported error.
# blaNDM-1: Metallo-beta-lactamase type 2 (blaNDM-1, Klebsiella pneumoniae, UniProt C7C422)
# uncharacterized protein: uncharacterized protein (Anopheles coluzzii, UniProt A0A6E8VQK1)
# Chain of UniProt A5GZW8 (whole entry, looked up): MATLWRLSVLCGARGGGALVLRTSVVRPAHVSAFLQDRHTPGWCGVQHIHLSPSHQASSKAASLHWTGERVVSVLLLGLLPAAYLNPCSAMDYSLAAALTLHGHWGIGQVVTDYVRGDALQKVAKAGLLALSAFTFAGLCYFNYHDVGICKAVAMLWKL
# Chain of UniProt Q007T0 (whole entry, looked up): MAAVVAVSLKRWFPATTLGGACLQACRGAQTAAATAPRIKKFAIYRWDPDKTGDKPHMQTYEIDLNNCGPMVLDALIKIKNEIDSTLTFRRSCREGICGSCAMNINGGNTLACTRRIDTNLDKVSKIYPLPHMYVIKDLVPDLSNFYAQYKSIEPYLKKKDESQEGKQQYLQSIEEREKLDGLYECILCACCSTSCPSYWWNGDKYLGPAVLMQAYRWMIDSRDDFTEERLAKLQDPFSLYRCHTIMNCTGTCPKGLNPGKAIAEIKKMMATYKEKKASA
# Chain of UniProt D0VWV4 (whole entry, looked up): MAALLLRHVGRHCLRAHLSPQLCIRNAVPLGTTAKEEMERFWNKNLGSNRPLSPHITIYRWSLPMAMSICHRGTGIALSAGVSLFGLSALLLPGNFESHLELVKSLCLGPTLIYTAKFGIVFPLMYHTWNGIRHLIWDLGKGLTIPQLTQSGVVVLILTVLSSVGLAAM
# Chain of UniProt P27361 (whole entry, looked up): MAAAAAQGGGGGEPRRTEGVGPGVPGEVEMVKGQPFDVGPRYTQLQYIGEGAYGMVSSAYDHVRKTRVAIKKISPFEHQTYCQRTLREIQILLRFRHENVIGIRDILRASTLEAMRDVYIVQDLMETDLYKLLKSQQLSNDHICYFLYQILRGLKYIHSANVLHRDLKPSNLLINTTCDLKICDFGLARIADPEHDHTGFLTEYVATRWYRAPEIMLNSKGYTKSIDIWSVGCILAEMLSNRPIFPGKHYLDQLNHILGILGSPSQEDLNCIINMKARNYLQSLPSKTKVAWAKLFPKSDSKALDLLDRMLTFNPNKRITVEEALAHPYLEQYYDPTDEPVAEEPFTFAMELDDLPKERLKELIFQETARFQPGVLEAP
# Chain of UniProt P48039 (whole entry, looked up): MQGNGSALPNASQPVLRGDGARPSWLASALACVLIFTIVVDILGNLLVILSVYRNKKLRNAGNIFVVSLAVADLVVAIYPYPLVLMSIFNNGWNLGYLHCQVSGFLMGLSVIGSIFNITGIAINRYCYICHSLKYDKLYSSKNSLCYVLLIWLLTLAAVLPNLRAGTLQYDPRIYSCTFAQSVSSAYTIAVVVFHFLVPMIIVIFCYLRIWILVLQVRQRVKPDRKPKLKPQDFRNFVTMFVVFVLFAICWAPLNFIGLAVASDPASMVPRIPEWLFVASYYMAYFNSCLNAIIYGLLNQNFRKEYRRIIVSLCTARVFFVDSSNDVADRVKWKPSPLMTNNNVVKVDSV
# Chain of UniProt Q9BWU1 (whole entry, looked up): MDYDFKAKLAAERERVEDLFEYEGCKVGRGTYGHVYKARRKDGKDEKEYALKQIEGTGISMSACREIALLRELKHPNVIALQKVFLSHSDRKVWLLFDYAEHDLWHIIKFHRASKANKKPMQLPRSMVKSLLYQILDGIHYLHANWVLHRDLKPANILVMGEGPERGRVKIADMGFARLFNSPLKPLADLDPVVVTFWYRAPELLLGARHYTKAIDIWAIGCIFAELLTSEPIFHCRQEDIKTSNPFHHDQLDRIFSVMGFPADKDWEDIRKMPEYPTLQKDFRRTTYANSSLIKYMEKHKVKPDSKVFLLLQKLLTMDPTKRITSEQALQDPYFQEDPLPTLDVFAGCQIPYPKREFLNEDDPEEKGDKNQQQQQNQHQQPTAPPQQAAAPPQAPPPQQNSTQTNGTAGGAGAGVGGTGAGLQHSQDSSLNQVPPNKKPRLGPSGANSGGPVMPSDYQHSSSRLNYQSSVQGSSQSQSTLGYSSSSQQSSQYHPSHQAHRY
# Chain of UniProt Q14994 (whole entry, looked up): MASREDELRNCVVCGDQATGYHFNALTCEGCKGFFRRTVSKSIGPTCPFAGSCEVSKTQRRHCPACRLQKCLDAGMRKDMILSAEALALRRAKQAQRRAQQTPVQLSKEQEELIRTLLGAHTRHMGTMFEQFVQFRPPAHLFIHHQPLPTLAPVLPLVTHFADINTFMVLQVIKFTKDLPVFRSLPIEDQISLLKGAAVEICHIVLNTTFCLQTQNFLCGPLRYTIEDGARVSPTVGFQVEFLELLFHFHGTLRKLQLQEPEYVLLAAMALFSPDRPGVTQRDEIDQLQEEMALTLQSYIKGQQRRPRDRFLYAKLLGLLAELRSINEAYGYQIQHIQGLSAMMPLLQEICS
# Chain of UniProt P19099 (whole entry, unmodified, looked up): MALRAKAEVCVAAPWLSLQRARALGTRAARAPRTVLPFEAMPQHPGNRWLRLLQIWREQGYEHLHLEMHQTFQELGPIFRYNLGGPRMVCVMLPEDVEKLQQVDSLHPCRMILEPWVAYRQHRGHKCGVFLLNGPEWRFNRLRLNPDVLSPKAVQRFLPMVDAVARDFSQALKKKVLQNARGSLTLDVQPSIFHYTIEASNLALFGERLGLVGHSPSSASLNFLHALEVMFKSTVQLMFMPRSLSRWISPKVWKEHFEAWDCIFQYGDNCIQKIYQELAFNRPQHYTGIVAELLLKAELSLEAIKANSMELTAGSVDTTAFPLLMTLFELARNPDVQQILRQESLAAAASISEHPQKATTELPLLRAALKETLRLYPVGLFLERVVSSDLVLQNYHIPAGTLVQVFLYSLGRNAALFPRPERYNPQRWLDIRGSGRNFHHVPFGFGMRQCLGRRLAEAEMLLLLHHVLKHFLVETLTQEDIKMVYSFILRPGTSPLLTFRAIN
# Chain of UniProt Q704Y3 (whole entry, unmodified, looked up): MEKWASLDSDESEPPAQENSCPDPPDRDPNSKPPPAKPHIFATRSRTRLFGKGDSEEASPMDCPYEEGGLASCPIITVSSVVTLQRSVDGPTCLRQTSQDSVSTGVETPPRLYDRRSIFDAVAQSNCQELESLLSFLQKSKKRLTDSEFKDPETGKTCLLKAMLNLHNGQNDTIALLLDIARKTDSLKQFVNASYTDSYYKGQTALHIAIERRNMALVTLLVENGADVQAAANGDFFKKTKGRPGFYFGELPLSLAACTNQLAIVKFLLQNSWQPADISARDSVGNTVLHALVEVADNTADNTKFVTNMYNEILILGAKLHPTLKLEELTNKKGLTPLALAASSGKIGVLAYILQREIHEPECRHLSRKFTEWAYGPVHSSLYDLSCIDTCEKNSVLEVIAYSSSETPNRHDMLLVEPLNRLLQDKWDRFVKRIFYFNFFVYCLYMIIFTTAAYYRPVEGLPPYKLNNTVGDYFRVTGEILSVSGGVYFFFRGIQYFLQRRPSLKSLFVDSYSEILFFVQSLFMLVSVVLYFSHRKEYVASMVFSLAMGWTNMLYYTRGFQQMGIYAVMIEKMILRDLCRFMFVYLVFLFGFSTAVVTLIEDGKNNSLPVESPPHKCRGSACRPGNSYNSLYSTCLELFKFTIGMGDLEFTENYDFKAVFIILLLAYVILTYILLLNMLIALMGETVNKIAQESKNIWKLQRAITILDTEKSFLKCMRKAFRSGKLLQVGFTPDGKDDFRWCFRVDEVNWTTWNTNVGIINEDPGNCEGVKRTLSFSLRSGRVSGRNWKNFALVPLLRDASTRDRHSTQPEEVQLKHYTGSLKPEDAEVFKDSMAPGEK
# Chain of UniProt C6WFL3 (whole entry, looked up): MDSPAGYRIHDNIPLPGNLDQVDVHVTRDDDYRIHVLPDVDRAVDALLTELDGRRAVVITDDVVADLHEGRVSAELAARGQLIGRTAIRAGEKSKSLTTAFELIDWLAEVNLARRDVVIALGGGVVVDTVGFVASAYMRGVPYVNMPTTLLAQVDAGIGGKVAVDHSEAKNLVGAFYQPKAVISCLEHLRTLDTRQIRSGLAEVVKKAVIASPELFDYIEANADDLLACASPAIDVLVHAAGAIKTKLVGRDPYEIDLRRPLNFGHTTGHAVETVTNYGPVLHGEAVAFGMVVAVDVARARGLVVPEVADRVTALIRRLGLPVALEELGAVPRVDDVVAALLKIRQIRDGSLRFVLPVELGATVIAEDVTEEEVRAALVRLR
# Chain of UniProt P00942 (whole entry, unmodified, looked up): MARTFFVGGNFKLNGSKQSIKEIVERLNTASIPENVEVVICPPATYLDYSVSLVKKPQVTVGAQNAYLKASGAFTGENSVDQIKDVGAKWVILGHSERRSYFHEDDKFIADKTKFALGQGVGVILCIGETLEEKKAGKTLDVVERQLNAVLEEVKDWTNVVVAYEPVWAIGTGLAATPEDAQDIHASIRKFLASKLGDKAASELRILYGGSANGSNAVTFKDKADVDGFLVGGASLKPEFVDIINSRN
# Chain of UniProt P37088 (whole entry, looked up): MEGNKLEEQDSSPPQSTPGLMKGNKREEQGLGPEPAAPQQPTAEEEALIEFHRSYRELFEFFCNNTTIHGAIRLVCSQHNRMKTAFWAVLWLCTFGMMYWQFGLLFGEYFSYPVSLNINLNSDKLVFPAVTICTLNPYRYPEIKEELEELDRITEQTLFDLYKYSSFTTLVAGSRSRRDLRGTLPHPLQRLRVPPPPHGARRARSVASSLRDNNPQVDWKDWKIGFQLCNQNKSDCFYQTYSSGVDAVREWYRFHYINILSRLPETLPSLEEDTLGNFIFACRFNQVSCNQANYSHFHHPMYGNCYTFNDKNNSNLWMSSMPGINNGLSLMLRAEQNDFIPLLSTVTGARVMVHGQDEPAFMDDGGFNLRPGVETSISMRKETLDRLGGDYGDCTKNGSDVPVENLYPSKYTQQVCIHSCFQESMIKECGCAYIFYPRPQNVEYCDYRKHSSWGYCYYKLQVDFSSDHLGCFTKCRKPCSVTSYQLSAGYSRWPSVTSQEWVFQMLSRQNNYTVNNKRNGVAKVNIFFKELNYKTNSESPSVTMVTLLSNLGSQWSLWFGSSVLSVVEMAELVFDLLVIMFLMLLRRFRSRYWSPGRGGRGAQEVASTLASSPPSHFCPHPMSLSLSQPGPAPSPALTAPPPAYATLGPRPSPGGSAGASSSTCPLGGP
SMILES,target,test,test system,setting,how to read,quantity,value
CN(C(=O)n1cnc(-c2ccc[n+]([O-])c2)c1)C1CCCCC1,"ADRB3 (Homo sapiens, UniProt P13945)",radioligand binding,,50 µM,,inhibition,-2%
CCOC(=O)COc1ccc2c(=O)c3ccccc3oc2c1,"ache (Electrophorus electricus, UniProt O42275)",enzyme activity,,"0.84 µM, added: substrate 0.86 mM",higher = faster reaction,reaction velocity,0.0011 a.u.
Nc1nc2c(ncn2[C@@H]2O[C@@H]3COP(=O)(O)O[C@H]4[C@@H](O)[C@H](n5cnc6c(=O)[nH]c(N)nc65)O[C@@H]4COP(=O)(O)O[C@H]3[C@H]2O)c(=O)[nH]1,"Cell cycle histidine kinase CckA, cytoplasmic region (Caulobacter vibrioides, UniProt Q9X688)",isothermal titration calorimetry,Caulobacter crescentus,"concentration not given, 12 °C, added: ADP 5 mM",,binding enthalpy (ΔH),20.5 kJ/mol
C[C@H](C(=O)N[C@H]1COc2ccccc2[C@@H]1S(C)(=O)=O)c1ccc(F)cc1,"GRM4 (Homo sapiens, UniProt Q14833)","cAMP level, HTRF",human mGluR4 cells,"concentration not given, concentration-response",,activity,inactive
O=C(c1ccc(Cl)cc1)N1CCN2C(=O)N(OC(=O)N3CCOc4ccccc43)C(=O)C2C1 (stereo not shown),"Dipeptidyl peptidase 2 (Homo sapiens, UniProt Q9UHL4)","enzyme activity, inhibitor, MS-based ABPP",SW-620 conditioned medium,"10 µM, 1 h, 37 °C","baseline: compound over DMSO, lower = stronger inhibition",median ratio,1.15
[2H]c1c([2H])c([C@]2([2H])CCCN2C(=O)C(C)(C)Oc2ccc3cn[nH]c3c2)c([2H])c([2H])c1C([2H])([2H])[2H],"PKMYT1 (Homo sapiens, UniProt Q99640)",KINOMEscan,,1 µM,baseline: DMSO control,remaining binding,55%
Nc1ncc(-c2nc(N3CCOCC3)nc(N3CCOCC3)n2)c(C(F)F)n1,"NEK10 (Homo sapiens, UniProt Q6ZWH5)",KINOMEscan,,10 µM,,remaining binding,66%
C=C(CN(C(=O)c1c(C(F)F)nn(C)c1F)C1CC1)c1ccc(Cl)cc1Cl,"SDHD/SDHC/SDHB (Sus scrofa, UniProt A5GZW8+D0VWV4+Q007T0)","enzyme activity, inhibitor, DCIP reduction",pig,"0.4 µM, added: DCIP 160 µM",,reaction velocity,0.0174 µM/s and 0.0152 µM/s and 0.0153 µM/s
COc1cc(N)c(Cl)cc1C(=O)NC1CN2CCC1CC2 (stereo not shown),"Probable G-protein coupled receptor 162 (GPR162, Homo sapiens, UniProt Q16538)","β-arrestin recruitment, TANGO luminescence, measured: GPR162",,concentration not given,baseline: basal luminescence,log2 fold change,-0.16
O=C(Nc1cnccc1Cl)N1CCN(Cc2ccc3c(c2)OC(F)(F)O3)CC1,"MTNR1A (Homo sapiens, UniProt P48039)",radioligand binding,,concentration not given,,inhibition,3% and 1%
O=P(O)(O)OC[C@H]1C[C@@](O)(CO)[C@@H](O)[C@H](O)[C@@H]1O,"2-epi-valiolone synthase (Actinosynnema mirum, UniProt C6WFL3)",phosphate release,,100 µM,,apparent Vmax,1.8 ± 0.2 µM/min
O=C(O)c1cccc(C(O)P(=O)(O)O)n1 (stereo not shown),blaNDM-1,inhibitor,,added: nitrocefin,,dissociation half-life,8.3 ± 1 min
CO[C@H]1C[C@H](O[C@H]2[C@H](C)O[C@@H](O[C@@H]3/C(C)=C/C[C@@H]4C[C@@H](C[C@]5(C=C[C@H](C)[C@@H](C6CCCCC6)O5)O4)OC(=O)[C@@H]4C=C(C)[C@@H](O)[C@H]5OC/C(=C\C=C\[C@@H]3C)[C@]54O)C[C@@H]2OC)O[C@@H](C)[C@@H]1O,"Nuclear receptor subfamily 1 group I member 3 (Homo sapiens, UniProt Q14994)",,cells,concentration not given,,activity,inactive
CC1(C)[C@H](C(=O)O[C@H](C#N)c2cccc(Oc3ccccc3)c2)[C@@H]1C=C(Br)Br,uncharacterized protein,"enzyme activity, inhibitor",Sf9 cell homogenate,"0.004545 µM, 0.1667 h, added: α-naphthyl acetate substrate",baseline: no inhibitor,remaining activity,100%
O=C(Nc1cccnn1)N1CCC(=Cc2cccc(Oc3ccc(C(F)(F)F)cn3)c2)CC1,"central imidazoline I2 receptor, rat",binding,,"50 µM, added: [3H]idazoxan",,inhibition,37%
O=C(O)COP(=O)(O)O,"TPI1 (Saccharomyces cerevisiae, UniProt P00942, Y208T)","enzyme activity, competitive inhibitor, GPDH/NADH-coupled",,"pH 8.9, 25 °C, ionic strength 0.1 NaCl, added: glyceraldehyde 3-phosphate substrate",baseline: mutant over wild type,Ki ratio,8.6
CC1(C)C(C=C(Cl)Cl)C1C(=O)OCc1cccc(Oc2ccccc2)c1 (stereo not shown),uncharacterized protein,"enzyme activity, inhibitor",Sf9 cell homogenate,"93.02 µM, 0.1667 h, added: α-naphthyl acetate substrate",baseline: no inhibitor,remaining activity,87.6%
COC(=O)[C@@]1(O)C[C@H]2O[C@]1(C)n1c3ccccc3c3c4c(c5c6ccccc6n2c5c31)C(=O)NC4,"MAPK3 (Homo sapiens, UniProt P27361)",ADP-Glo,,"1.43 µM, added: MBP substrate",,kinase activity,119% and 106% and 96.8%
CC(CCn1ccc(-c2ccc(-c3cn(Cc4ccc([N+](=O)[O-])cc4)nn3)cc2)cc1=O)(C(=O)NO)S(C)(=O)=O (stereo not shown),"UDP-3-O-acyl-N-acetylglucosamine deacetylase (Pseudomonas aeruginosa, UniProt P47205)",fluorescence,,37 °C,,residence time,78.5 ± 8.4 min
c1cncc([C@@H]2CCCN2)c1,"Chrnd/Chrna1/Chrne (Mus musculus, UniProt P02716+P04756+P20782)",single-channel kinetics,,wild-type receptor,,resting-state koff,3650 s⁻¹
CN1CCN(c2cc(-c3ccncc3)c(-c3ccc4ccccc4c3)nn2)CC1,"S1PR4 (Homo sapiens, UniProt O95977)","agonist, FLIPR",,12.5 µM,,activation,1.9%
CC(=O)N[C@@H](CO)C(=O)N[C@@H](Cc1ccccc1)C(=O)N[C@@H](CCC(=O)O)C(=O)N[C@@H](Cc1ccccc1)C(=O)N1CCC[C@H]1C(=O)N1CCC[C@H]1C(=O)N1CCC[C@H]1C(=O)N1CCC[C@H]1C(=O)N[C@H](C(=O)N[C@@H](CCC(=O)O)C(=O)N[C@@H](CC(=O)O)C(=O)N[C@@H](CCC(=O)O)C(=O)N[C@@H](CC(C)C)C(N)=O)[C@@H](C)O,"Vasodilator-stimulated phosphoprotein, EVH1 domain (VASP, Homo sapiens, UniProt P50552)",fluorescence titration,,25 °C,,binding free energy,-26.9 kJ/mol
COc1ccc(N2C(=O)N(c3c(C)cccc3Cl)Cc3cnc(Nc4ccc(C5CCN(C)CC5)cc4OC)nc32)nc1,"TTK (Homo sapiens, UniProt P33981)",kinase activity,,0.5 µM,,inhibition,19%
CC(C)C[C@H](NC(=O)[C@@H]1CCCN1C(=O)[C@H](CCCNC(=N)N)NC(=O)[C@H](CC(C)C)NC(=O)[C@H](CCCNC(=N)N)NC(=O)[C@H](CC(=O)O)NC(=O)[C@H](Cc1ccc(O)cc1)NC(=O)[C@H](CC(=O)O)NC(=O)[C@H](CCC(=O)O)NC(=O)[C@H](CCC(N)=O)NC(=O)CN)C(=O)O,"Epithelial sodium channel subunit alpha (Homo sapiens, UniProt P37088)","binding, bio-layer interferometry",,,,kon,277 M⁻¹ s⁻¹
CCCCC/C=C\C/C=C\C/C=C\C/C=C\CCCC(=O)NCCO,"Trpv1 (Mus musculus, UniProt Q704Y3, S513T)","ion current, agonist, whole-cell patch clamp",,S513T,baseline: 3 mM 2-APB,maximal open probability,0.97 ± 0.16
c1ccc2c(c1)cc1ccc3cccc4ccc2c1c34,"Ahr (Rattus norvegicus, UniProt P41738)","reporter gene, agonist",H4IIE-luc rat hepatoma cells,0.2 to 50 nM,,EC20,2.3 log fmol/well
CC[C@H](C)[C@H](NC(=O)[C@@H](NC(=O)[C@@H](NC(=O)[C@H](Cc1ccccc1)NC(=O)[C@H](C)NC(=O)[C@H](CCCNC(=N)N)NC(=O)CNC(=O)[C@@H]1CCCN1C(=O)CN)C(C)C)[C@@H](C)O)C(=O)O,"H-2 class I histocompatibility antigen, D-D alpha chain, 22 (H2-D1, Mus musculus, UniProt P01900)",NMR line shape,,"25 °C, peptide-deficient H2-D/human β2m, TAPBPR, two-state model",,koff,< 100 s⁻¹
C[C@]12CC[C@H]3[C@@H](CCC4=CC(=O)CC[C@@]43C)[C@@H]1CC[C@@H]2C(=O)CO,"CYP11B2 (Homo sapiens, UniProt P19099, A320V)",substrate,,"100 µM, 37 °C, phospholipid vesicles",,11β-hydroxylation product formation rate,38.6 ± 5.6 min⁻¹
COc1cc(Nc2ncc(F)c(Nc3ccc4c(n3)NC(=O)C(C)(C)O4)n2)cc(OC)c1OC,"CDK19 (Homo sapiens, UniProt Q9BWU1)","kinase binding, KINOMEscan",,10 µM,,inhibition,0%
CC(=O)[C@]1(O)Cc2c(O)c3c(c(O)c2[C@@H](O[C@H]2C[C@H](N)[C@H](O)[C@H](C)O2)C1)C(=O)c1ccccc1C3=O,blaNDM-1,inhibitor,,,,Hill coefficient,1.1
O=C(NO)[C@H]1COC(c2c[nH]c3ccc(F)cc23)=N1,"UDP-3-O-acyl-N-acetylglucosamine deacetylase (Pseudomonas aeruginosa, UniProt P47205, C40S)",ITC,,"concentration not given, 298 K",,-TΔS of binding,-32.4 kJ/mol
C[C@H]1CN(c2n[nH]c3nc(N[C@H]4CC[C@H](NS(=O)(=O)CCC(F)(F)F)CC4)ncc23)CCO1,"Stalled ribosome sensor GCN1 (Homo sapiens, UniProt Q92616)","Kinobeads competition, measured: GCN1L1",,"0.032 µM, unit not given",baseline: vehicle,remaining binding,0.91
CC[C@H](C)[C@H](NC(=O)CNC(=O)[C@@H](N)CCCCN)C(=O)N[C@@H](CC(C)C)C(=O)N[C@@H](CCCCN)C(=O)N[C@@H](CCCNC(=N)N)C(=O)N[C@@H](CCC(=O)O)C(=O)N[C@@H](CCCCN)C(=O)N[C@@H](CCCNC(=N)N)C(=O)N[C@@H](CC(C)C)C(=O)N[C@@H](CCCNC(=N)N)C(=O)N[C@@H](CCCNC(=N)N)C(=O)N[C@@H](CCCCN)C(=O)N[C@@H](CC(N)=O)C(=O)N[C@H](C(=O)N[C@@H](Cc1c[nH]cn1)C(=O)N[C@@H](Cc1c[nH]c2ccccc12)C(=O)N1CCC[C@H]1C(=O)N[C@@H](CCC(=O)O)C(=O)N[C@@H](CCC(=O)O)C(=O)NCC(=O)N[C@@H](CCCCN)C(=O)N[C@@H](CC(C)C)C(=O)N[C@@H](CCCNC(=N)N)C(=O)N[C@@H](CCC(=O)O)C(=O)N[C@@H](Cc1ccccc1)C(=O)N[C@@H](Cc1ccccc1)C(=O)N[C@@H](Cc1ccccc1)C(=O)N[C@@H](Cc1ccccc1)C(=O)N[C@@H](CCC(=O)O)C(=O)N[C@@H](CC(C)C)C(=O)N[C@@H](CC(=O)O)C(=O)N[C@@H](CCC(=O)O)C(=O)N[C@@H](C)C(=O)N[C@@H](CCC(=O)O)C(=O)N[C@@H](CCCNC(=N)N)C(=O)N[C@H](C(=O)N[C@@H](CC(N)=O)C(=O)N[C@H](C(=O)O)C(C)C)C(C)C)C(C)C,"PPP1CA (Homo sapiens, UniProt P62136)",ITC,,"concentration not given, 25 °C, PP1α 7-330",,ΔG of binding,-47.28 ± 0.418 kJ/mol
CC(C)(C)C(O)/C(=C\c1ccc(Cl)cc1Cl)n1cncn1 (stereo not shown),"Gastrotropin (FABP6, Homo sapiens, UniProt P51161)","binding, affinity selection mass spectrometry",,"100 nM, pooled screen",baseline: other proteins,fold change,27

# Repeated from above:
SMILES,target,test,test system,setting,how to read,quantity,value
COC(=O)[C@@]1(O)C[C@H]2O[C@]1(C)n1c3ccccc3c3c4c(c5c6ccccc6n2c5c31)C(=O)NC4,"MAPK3 (Homo sapiens, UniProt P27361)",ADP-Glo,,"1.43 µM, added: MBP substrate",,kinase activity,119% and 106% and 96.8%
CC(CCn1ccc(-c2ccc(-c3cn(Cc4ccc([N+](=O)[O-])cc4)nn3)cc2)cc1=O)(C(=O)NO)S(C)(=O)=O (stereo not shown),"UDP-3-O-acyl-N-acetylglucosamine deacetylase (Pseudomonas aeruginosa, UniProt P47205)",fluorescence,,37 °C,,residence time,78.5 ± 8.4 min
c1cncc([C@@H]2CCCN2)c1,"Chrnd/Chrna1/Chrne (Mus musculus, UniProt P02716+P04756+P20782)",single-channel kinetics,,wild-type receptor,,resting-state koff,3650 s⁻¹
CN1CCN(c2cc(-c3ccncc3)c(-c3ccc4ccccc4c3)nn2)CC1,"S1PR4 (Homo sapiens, UniProt O95977)","agonist, FLIPR",,12.5 µM,,activation,1.9%
